# Experimental data collected from several papers.
# A part holds a random share of what one study measured. Positions count from the first letter of the parent shown.
# UniProt P42681, sequence (whole entry, looked up): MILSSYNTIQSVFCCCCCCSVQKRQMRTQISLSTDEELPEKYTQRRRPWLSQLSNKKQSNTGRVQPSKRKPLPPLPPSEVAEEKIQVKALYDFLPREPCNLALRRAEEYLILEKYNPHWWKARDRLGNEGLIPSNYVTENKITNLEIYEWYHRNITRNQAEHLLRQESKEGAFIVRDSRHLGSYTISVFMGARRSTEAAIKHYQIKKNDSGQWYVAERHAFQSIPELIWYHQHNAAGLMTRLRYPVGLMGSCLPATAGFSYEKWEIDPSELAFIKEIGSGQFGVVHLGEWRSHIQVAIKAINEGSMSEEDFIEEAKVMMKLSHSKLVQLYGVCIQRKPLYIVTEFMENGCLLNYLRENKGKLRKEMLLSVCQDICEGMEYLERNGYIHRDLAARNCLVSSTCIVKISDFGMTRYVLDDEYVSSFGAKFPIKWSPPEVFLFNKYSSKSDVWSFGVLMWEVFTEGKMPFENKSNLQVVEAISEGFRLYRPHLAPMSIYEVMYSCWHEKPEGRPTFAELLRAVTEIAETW
# UniProt Q8N4C8, sequence (whole entry, looked up): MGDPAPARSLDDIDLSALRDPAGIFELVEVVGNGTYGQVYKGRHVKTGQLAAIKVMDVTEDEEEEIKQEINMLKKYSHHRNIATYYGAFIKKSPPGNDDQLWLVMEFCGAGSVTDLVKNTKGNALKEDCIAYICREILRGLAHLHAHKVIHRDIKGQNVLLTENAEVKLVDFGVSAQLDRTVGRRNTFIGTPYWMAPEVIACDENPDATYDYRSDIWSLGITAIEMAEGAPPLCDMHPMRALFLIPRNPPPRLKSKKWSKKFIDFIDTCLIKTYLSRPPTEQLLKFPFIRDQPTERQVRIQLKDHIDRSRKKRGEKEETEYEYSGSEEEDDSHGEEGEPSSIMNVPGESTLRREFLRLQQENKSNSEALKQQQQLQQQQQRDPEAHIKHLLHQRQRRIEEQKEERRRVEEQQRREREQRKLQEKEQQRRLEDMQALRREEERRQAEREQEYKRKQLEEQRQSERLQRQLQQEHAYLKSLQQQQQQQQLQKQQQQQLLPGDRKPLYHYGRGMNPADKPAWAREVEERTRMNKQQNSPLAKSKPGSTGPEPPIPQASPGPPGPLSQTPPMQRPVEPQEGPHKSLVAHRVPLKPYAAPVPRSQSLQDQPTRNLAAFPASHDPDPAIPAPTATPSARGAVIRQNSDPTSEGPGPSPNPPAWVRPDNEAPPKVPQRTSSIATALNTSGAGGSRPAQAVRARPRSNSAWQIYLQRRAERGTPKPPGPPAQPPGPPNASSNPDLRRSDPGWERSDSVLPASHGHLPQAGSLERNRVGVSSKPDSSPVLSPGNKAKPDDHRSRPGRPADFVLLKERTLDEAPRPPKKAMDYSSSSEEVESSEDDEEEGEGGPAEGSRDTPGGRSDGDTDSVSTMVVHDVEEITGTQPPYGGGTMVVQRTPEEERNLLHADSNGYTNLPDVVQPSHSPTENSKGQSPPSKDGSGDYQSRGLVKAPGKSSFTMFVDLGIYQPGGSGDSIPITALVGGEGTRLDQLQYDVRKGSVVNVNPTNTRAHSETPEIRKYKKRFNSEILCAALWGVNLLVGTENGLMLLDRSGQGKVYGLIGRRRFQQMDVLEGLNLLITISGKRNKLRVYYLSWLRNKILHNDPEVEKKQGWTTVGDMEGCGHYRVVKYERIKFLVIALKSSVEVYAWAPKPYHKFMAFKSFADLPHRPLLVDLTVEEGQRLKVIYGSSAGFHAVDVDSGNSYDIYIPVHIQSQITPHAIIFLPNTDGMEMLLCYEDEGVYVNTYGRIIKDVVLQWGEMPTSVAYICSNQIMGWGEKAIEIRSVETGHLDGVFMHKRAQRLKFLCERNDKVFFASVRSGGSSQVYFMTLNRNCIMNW

# Study 1
# Target: CCNF, cyclin fold, Cln2 fusion (human)
# Technique: yeast growth competition, sequencing
# Matrix: yeast
# Notes: strong parent motif
# Baseline: not given
# Direction: higher = stronger binding
# Parent: viral docking peptide; TSVRRALFTGGSD
Variant,normalised enrichment score
TSVERALFTGGSD [R4E],1.64
TSVRRALFTRGSD [G10R],8.86
TSVRRALFTGGWD [S12W],8.72
TSVRRYLFTGGSD [A6Y],3.64
TSVRRAPFTGGSD [L7P],0.29
THVRRALFTGGSD [S2H],8.32
TNVRRALFTGGSD [S2N],8.35
TSVRRAIFTGGSD [L7I],5.74
TLVRRALFTGGSD [S2L],8.1
TSVRRALFTGVSD [G11V],8.33
TSVPRALFTGGSD [R4P],3.86
TQVRRALFTGGSD [S2Q],7.69
TSVRRALFTGISD [G11I],8.28
TSVRRALTTGGSD [F8T],0.195
TSVQRALFTGGSD [R4Q],6.9
TSVRRALFTGGRD [S12R],8.76
TSVCRALFTGGSD [R4C],7.13
TSVRRALFTGGSA [D13A],9

# Study 2
# SMILES: O=C1NC(=O)c2c1c1c3ccccc3n3c1c1c2c2ccccc2n1[C@H]1CC[C@@H]3O1
# Read-out: enzyme activity
# Action: inhibitor
# Concentration: 0.5 µM
# Baseline: control
target,remaining activity
"Hepatocyte growth factor receptor (MET, Homo sapiens, UniProt P08581)",76.9%
"Tyrosine-protein kinase TXK (TXK, Homo sapiens, UniProt P42681)",22.7%
"Misshapen-like kinase 1 (MINK1, Homo sapiens, UniProt Q8N4C8)",0.901%

# Study 3
# Target: RING finger protein unkempt homolog, zinc fingers 1-6, GST-SBP tag (UNK, Homo sapiens, UniProt Q9C0B0, residues 30-357)
# Technique: RNA Bind-n-Seq
# Form: RNA
# Matrix: in vitro
# Concentration: not given
# Notes: RNA with constant flanks, human-mouse chimeric sites, ends assumed
# Baseline: input RNA pool
# Direction: higher = stronger binding
# All sequences stand within: GGGAGUUCUACAGUCCGACGAUC … CAACAGAGGAUUGAGCAUCA
# Target sequence (chain): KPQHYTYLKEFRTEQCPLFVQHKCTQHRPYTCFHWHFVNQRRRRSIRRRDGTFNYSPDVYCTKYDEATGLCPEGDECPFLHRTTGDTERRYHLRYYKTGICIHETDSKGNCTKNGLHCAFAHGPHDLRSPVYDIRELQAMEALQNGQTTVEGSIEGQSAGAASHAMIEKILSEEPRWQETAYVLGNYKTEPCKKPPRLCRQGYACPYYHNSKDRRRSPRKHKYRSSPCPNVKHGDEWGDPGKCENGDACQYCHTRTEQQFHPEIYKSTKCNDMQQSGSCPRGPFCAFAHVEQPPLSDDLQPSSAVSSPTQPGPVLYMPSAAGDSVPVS
Strand,bound/input enrichment [ratio]
UGUGAACUGUCUCUUGAUUGGGGUCUACAAGAUGACUUUUCCUGGCACAUAUUCCAAAGCAAAGACUUUGUUGCCUGCUGCUUCUUGUCUAAUUUACAGGGAUAUUUAAUUUUGUCAGGU,0.286
ACUCUUGACUCUUUCCAUCCUCUUCCUUUCCCUCUUGAUCUUCAAGGCCAUGAAUCCCAAAAUAACAGUCUUAGUGGCUAGCACCCACCCAAACUGAGAAUAAAUCCACCCCAGUGUCUC,0.605
UCAGUCUAGCUUUUAAUCUUUGUAAAUUCUUAACAUUUUUAUAUUGCCAUGUUUAUUUUGUUUGGGUAAUUUGGUUCAUUAAGUACAUAGCUAAGGUAAUGAACAUCUUUUUCAGUAAUU,11.6
CUUAAUGAUAUUUUGAGUGAAUAAAUGAAGCUAAAAUGUCUGCUUUUGGUACAACACGCAUUAAUAAAAGGUUAAGUAAGUUUUGUUACUGAAGUACUAUUUAACAUCUCAGAAAAAAAC,0.169
ACACAAUAUGAGACCAACAGCUUGGACUUCAAAGUUGGGGCAGAUGGGACAGUCUUCGCCACCCGGGAGCUGCAGGUCCCCUCAGAGCAGGUGGCGUUCACGGUGACUGCAUGGGACAGC,0.212
CGCAGAAGAUUAAAGGGUGAGAGUGGGGUGGAAGACUGUGUCAUGGCUCUGGAGACACUGUUCAGUGUCCUGCUUUCUCUGUGCAGACUGAUGGCCCCUUACACGCCCUUUCUGACUGAG,0.0557
GCACUUCUCAAAUACUGGCCAAAGACUCACAGUCCAAAAGAAGUAAUGUUCUUAAAUGAAUUAGAAGAAAUUUUAGAUGUAAUUGAACCAUCAGAAUUUGUGAAGAUCAUGGAGCCUCUU,0.567
AGUACUGACUCAGGCGGAUUUUGCAACACCAAGCUCACAGCAGCAGCUCCAUAGUCACAGUAGGGUAGUUUUGGGGCUCUGUGGCCAGGGUUUUAUUCACAUGCAGGUUUGGAAAAUGUA,0.642

# Study 4
# Target: inorganic phosphate, free oxyanion
# Technique: microfluidic competitive inhibition
# Matrix: in vitro, cell-free expressed
# Concentration: not given
# Notes: derived from inhibition constants, unchanged parent 615000 nM
# Direction: lower = stronger binding
# Parent: PafA, mature enzyme, eGFP fusion (Elizabethkingia meningoseptica, UniProt Q9KJX5); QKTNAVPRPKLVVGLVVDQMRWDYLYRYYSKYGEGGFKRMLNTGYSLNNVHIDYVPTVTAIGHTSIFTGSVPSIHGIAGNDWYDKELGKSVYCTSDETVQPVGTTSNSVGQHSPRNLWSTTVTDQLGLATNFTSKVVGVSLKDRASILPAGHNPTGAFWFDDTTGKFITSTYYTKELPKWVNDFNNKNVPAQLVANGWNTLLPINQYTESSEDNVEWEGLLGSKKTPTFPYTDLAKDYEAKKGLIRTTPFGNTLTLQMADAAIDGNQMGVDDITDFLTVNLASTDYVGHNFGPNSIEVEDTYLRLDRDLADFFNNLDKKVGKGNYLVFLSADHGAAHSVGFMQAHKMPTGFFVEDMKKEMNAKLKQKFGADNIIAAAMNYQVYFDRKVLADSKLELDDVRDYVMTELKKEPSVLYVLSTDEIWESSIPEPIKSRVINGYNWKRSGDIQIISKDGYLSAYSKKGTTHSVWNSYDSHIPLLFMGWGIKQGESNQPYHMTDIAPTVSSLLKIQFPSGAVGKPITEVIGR
Variant,phosphate dissociation constant
L256V,610 µM
P101G,556 µM
A60V,1070 µM
L396G,663 µM
V287G,834 µM
D183G,686 µM
T419G,512 µM
L326G,488 µM
N361V,544 µM
N188G,555 µM
A336G,474 µM
Y383G,432 µM
A262V,533 µM
L417V,661 µM

# A few entries again (study 2):
target,remaining activity
"Hepatocyte growth factor receptor (MET, Homo sapiens, UniProt P08581)",76.9%
"Tyrosine-protein kinase TXK (TXK, Homo sapiens, UniProt P42681)",22.7%
"Misshapen-like kinase 1 (MINK1, Homo sapiens, UniProt Q8N4C8)",0.901%
